Published values pooled from the literature.
Lines come from different studies, so protocols differ. “And” joins repeats or separate records; there may be more than shown.
Sequence of UniProt Q96IU4 (whole entry, looked up): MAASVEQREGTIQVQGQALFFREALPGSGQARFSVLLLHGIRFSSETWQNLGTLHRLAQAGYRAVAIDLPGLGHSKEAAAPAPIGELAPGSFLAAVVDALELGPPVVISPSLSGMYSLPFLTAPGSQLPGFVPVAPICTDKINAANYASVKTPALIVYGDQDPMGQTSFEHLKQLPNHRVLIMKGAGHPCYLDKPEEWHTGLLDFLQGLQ
Sequence of UniProt Q96P69 (whole entry, looked up): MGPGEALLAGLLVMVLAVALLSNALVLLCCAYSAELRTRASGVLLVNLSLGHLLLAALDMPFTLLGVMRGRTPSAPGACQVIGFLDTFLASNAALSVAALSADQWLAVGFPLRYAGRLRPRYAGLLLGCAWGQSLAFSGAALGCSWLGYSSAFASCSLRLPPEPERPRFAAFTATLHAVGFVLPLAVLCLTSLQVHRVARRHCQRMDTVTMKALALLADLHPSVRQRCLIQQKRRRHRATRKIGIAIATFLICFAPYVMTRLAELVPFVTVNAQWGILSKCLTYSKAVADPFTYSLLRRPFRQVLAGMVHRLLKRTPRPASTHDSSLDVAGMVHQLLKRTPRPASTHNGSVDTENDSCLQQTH
Sequence of UniProt Q92945 (whole entry, looked up): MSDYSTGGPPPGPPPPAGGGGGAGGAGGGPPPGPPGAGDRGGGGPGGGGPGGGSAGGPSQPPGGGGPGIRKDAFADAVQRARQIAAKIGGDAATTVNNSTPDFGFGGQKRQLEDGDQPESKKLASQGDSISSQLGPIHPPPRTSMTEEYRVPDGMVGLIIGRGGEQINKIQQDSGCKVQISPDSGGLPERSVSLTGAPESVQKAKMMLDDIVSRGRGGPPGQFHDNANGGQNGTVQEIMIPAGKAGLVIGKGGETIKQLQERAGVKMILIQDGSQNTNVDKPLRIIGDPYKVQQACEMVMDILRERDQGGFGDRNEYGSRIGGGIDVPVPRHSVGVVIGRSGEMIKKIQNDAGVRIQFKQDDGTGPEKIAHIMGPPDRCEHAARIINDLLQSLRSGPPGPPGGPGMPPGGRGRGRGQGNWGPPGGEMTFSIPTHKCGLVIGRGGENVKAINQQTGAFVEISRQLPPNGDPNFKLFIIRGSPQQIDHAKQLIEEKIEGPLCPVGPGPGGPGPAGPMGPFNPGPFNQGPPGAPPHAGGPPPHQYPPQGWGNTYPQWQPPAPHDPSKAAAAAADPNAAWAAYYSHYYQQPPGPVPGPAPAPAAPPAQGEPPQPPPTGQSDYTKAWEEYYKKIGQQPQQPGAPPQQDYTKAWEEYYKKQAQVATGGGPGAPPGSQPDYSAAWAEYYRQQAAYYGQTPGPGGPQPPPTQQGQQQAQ
Sequence of UniProt P28335 (whole entry, looked up): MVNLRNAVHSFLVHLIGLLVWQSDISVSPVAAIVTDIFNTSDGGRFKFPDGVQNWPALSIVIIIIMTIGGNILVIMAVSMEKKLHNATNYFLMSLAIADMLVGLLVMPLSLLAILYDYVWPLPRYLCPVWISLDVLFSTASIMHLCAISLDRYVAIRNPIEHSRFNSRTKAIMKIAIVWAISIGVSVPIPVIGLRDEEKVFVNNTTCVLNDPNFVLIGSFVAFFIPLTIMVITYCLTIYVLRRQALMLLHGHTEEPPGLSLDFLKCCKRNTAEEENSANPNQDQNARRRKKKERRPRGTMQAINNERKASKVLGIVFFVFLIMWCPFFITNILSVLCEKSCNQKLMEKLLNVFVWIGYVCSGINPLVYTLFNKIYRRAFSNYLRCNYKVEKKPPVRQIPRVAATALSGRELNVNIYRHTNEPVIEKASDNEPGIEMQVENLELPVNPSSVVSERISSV
Sequence of UniProt Q14164 (whole entry, looked up): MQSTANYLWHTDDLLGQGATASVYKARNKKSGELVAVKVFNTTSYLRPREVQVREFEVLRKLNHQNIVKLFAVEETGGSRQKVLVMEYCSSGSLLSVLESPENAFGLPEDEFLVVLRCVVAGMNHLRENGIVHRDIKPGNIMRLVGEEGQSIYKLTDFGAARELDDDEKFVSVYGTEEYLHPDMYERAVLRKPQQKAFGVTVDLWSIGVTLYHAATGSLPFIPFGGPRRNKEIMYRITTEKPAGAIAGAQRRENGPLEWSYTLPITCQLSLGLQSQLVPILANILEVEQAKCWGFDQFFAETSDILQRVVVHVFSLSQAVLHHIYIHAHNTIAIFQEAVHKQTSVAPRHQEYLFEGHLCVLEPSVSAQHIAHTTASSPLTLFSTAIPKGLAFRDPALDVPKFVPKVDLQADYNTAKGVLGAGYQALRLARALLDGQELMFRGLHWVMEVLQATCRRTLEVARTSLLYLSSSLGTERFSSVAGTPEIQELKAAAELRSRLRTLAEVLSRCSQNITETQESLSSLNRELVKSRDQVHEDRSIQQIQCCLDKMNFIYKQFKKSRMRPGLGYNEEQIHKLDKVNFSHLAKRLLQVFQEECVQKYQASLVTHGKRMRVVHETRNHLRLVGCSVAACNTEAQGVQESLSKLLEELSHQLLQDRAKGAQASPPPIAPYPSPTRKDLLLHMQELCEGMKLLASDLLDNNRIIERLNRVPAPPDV

SMILES | target or system | assay | system | conditions | scale | measurement | value
COc1ccc(-c2cc(C(F)(F)F)c3c(N)c(C(=O)NCc4ccccc4)sc3n2)cc1 | Mycobacterium tuberculosis | – | H37Rv wild type | – | reference: HepG2 IC50 over M. tuberculosis IC90 | selectivity index | < 1
C[C@@H](O)[C@@H](CO)NC(=O)[C@@H](CCCNC(=N)N)NC(=O)[C@@H]1CCCN1C(=O)[C@@H]1CSSC[C@H](NC(=O)[C@H](Cc2ccccc2)NC(=O)CN2CCN(CC(=O)O)CCN(CC(=O)O)CCN(CC(=O)O)CC2)C(=O)N[C@@H](Cc2ccc(O)cc2)C(=O)N[C@@H](Cc2ccccc2)C(=O)N[C@@H](CCC(N)=O)C(=O)N[C@@H](CC(N)=O)C(=O)N1 [gallium-68 labelled] | – | – | Wistar rat, healthy, Submandibular gland | intravenous, 8 MBq, 30 min, mean | – | tissue uptake | 0.44 %ID/g
COc1cc(Nc2ncc(F)c(Nc3ccc4c(n3)NC(=O)C(C)(C)O4)n2)cc(OC)c1OC | HTR2C (Homo sapiens, UniProt P28335) | – | – | – | – | IC50 | > 10 µM
C[C@@H](O)[C@H](NC(=O)[C@@H]1CSSC[C@H](NC(=O)[C@@H](Cc2ccccc2)NC(=O)CN2CCN(CC(=O)[O-])CCN(CC(=O)[O-])CCN(CC(=O)[O-])CC2)C(=O)N[C@@H](Cc2ccc(O)cc2)C(=O)N[C@H](Cc2c[nH]c3ccccc23)C(=O)N[C@@H](CCCCN)C(=O)N[C@@H]([C@@H](C)O)C(=O)N1)C(=O)O.[177Lu+3] | MEC1 | gamma counter | – | 120 min efflux after 2 h loading | – | retention | 29.3%
CC[C@H](C)[C@H](NC(=O)[C@H](C)NC(=O)[C@H](CCCCN)NC(=O)[C@H](CC(C)C)NC(=O)[C@H](C)NC(=O)[C@@H](NC(=O)[C@H](Cc1c[nH]cn1)NC(=O)[C@H](CC(C)C)NC(=O)[C@@H](NC(=O)[C@@H](NC(=O)[C@H](CCCCN)NC(=O)[C@H](C)NC(=O)[C@H](C)NC(=O)[C@H](CO)NC(=O)[C@H](CCCCN)NC(=O)[C@H](Cc1ccccc1)NC(=O)[C@@H](NC(=O)[C@H](CCCCN)NC(=O)[C@H](CC(C)C)NC(=O)[C@H](Cc1ccccc1)NC(=O)[C@H](CO)NC(=O)[C@H](CCCCN)NC(=O)[C@H](Cc1c[nH]c2ccccc12)NC(=O)[C@H](CCCCN)NC(C)=O)[C@@H](C)O)[C@@H](C)O)C(C)C)[C@@H](C)O)C(=O)N[C@@H](CO)C(=O)N[C@@H](CO)C(N)=O | Proteus | – | – | 20 strains | – | MIC90 | > 64 µg/mL
COc1c(CCC[P+](c2ccccc2)(c2ccccc2)c2ccccc2)cc2c(c1OC)OCO2.[I-] | SF-539 | SRB | – | – | – | GI50 | -5.68 log M
COc1ccc(N2C(=O)N(c3c(C)cccc3Cl)Cc3cnc(Nc4ccc(C5CCN(C)CC5)cc4OC)nc32)nc1 | IKBKE (Homo sapiens, UniProt Q14164) | kinase activity, inhibitor | – | 0.5 µM, kinase IKK-EPSILON | – | inhibition | 1.74%
COc1ccc(-c2cc(C(F)(F)F)c3c(N)c(C(=O)N4CCC4)sc3n2)cc1 | Mycobacterium tuberculosis | growth inhibition | H37Rv LepB under-expressing | – | – | IC50 | > 100 µM
O=C(c1ccc(Cl)cc1)N1CCN2C(=O)N(OC(=O)N3CCOc4ccccc43)C(=O)C2C1 (stereo not drawn) | Putative protein-lysine deacylase ABHD14B (Homo sapiens, UniProt Q96IU4) | enzyme activity, inhibitor, MS-based ABPP | SW-620 conditioned medium | 10 µM, 1 h, 37 °C | reference: compound over DMSO, lower = stronger inhibition | median ratio | 1.47
COc1ccc(-n2nc(C(C)=O)s/c2=N\N=C(/C)c2ccc(NC(C)=O)cc2)cc1 | WI-38 | – | – | 0.078 µM | – | toxicity | 19.8%
CN1C(=O)CN=C(c2ccccc2)c2cc(Cl)ccc21 | GABAA receptor benzodiazepine site, rat brain | radioligand binding | – | together with: flunitrazepam | – | IC50 | 0.019 µM
CC[C@H](C)[C@@H]1NC(=O)[C@@H]2CCCN2C(=O)[C@H](CC(C)C)NC(=O)[C@H](CC(C)C)NC(=O)CNC(=O)[C@@H](NC(=O)[C@@H](NC(=O)[C@H](CC(=O)O)NC(=O)CNC(=O)[C@@H](NC(=O)[C@H](C)NC(=O)CNC(=O)[C@H](CCCCN)NC(=O)[C@H](CC(C)C)NC(=O)[C@H](CC(C)C)NC(=O)[C@H](CCCCN)NC(=O)CNC(=O)[C@@H](NC(=O)[C@@H](N)CC(C)C)C(C)C)C(C)C)C(C)C)CSSC[C@@H](C(=O)O)NC1=O | – | RNA-seq, refers to: H2-T23 mRNA | mouse traumatic brain injury, frontal cortex and hippocampus | dose not given | reference: TBI plus compound vs TBI | log2 fold change | -1.58
CC1(C)C(C(=O)c2cn(CCCCCF)c3ccccc23)C1(C)C | – | spontaneous locomotor activity, mouse tetrad | ICR mouse male | intravenous | – | ED50 | 0.9 µmol/kg
CC1(C)NC(=O)N(c2ccc(F)c(C(F)(F)F)c2)C1=O | Schistosoma mansoni | – | NSG mouse | oral, 100 mg/kg single dose, not statistically significant | – | worm burden reduction | 8%
CC[C@H](C)[C@H](NC(=O)[C@H](Cc1ccccc1)NC(=O)[C@H](CCC(=O)O)NC(=O)[C@H](CCCNC(=N)N)NC(=O)[C@H](C)NC(=O)[C@H](C)NC(=O)[C@H](CCC(N)=O)NC(=O)[C@H](CCC(=O)O)NC(=O)[C@H](CCC(=O)O)NC(=O)[C@H](CC(C)C)NC(=O)[C@H](Cc1ccc(O)cc1)NC(=O)[C@H](CO)NC(=O)[C@H](CO)NC(=O)[C@@H](NC(=O)[C@H](CC(=O)O)NC(=O)[C@H](CO)NC(=O)[C@@H](NC(=O)[C@H](Cc1ccccc1)NC(=O)[C@@H](NC(=O)CNC(=O)[C@H](CCC(=O)O)NC(=O)[C@H](C)NC(=O)CCc1c[nH]cn1)[C@@H](C)O)[C@@H](C)O)C(C)C)C(=O)N[C@@H](C)C(=O)N[C@@H](Cc1c[nH]c2ccccc12)C(=O)N[C@@H](CC(C)C)C(=O)N[C@H](C(=O)N[C@@H](CCCNC(=N)N)C(=O)NCC(=O)N[C@@H](CCCNC(=N)N)C(=O)N[C@@H](CCCCNC(=O)COCCOCCNC(=O)COCCOCCNC(=O)CC[C@H](NC(=O)CCCCCCCCCCCCCCCCC(=O)O)C(=O)O)C(=O)NCC(=O)NCC(=O)N[C@@H](CO)C(=O)N[C@@H](CCCCNc1c(NCCCCCN(O)C(=O)CCC(=O)NCCCCCN(O)C(=O)CCC(=O)NCCCCCN(O)C(C)=O)c(=O)c1=O)C(=O)O)C(C)C [zirconium-89 labelled] | – | – | rat, brain | iv, 3 nmol/kg, 168 h, ex vivo | – | tissue uptake | 0.01 %ID/g
CC(C)N1CCC(NC2CCN(c3cccc(-c4cc5cc(F)ccc5[nH]4)c3)CC2)CC1 | SF-295 | – | – | – | – | GI50 | 1.87 µM
C[C@]12CC[C@H]3[C@@H](CC=C4CC(O)CC[C@@]43CO)[C@@H]1CCC2O (stereo partly drawn) | – | refers to: adiponectin, IL-10 | rat, GAN diet-induced MASH, white adipose tissue | dose not given | reference: GAN diet plus vehicle | anti-inflammatory marker level | increased
CC[C@@H](C)[C@@H](NC(=O)[C@@H](Cc1ccc(O)cc1)NC(=O)[C@H]1CCCN1C(=O)[C@@H](CCCNC(=N)N)NC(=O)[C@H](N)Cc1c[nH]cn1)C(=O)N[C@H](C)C(=O)N[C@H](Cc1c[nH]cn1)C(=O)N[C@H](CCCNC(=N)N)C(=O)N[C@H](CCCCNC(=O)c1cccc(S(=O)(=O)F)c1)C(=O)N[C@H](Cc1ccc(O)cc1)C(=O)N[C@H](CO)C(=O)N[C@H](Cc1ccccc1)C(N)=O | – | ex vivo flow cytometry | GL261-Luc brain tumour mice, cervical lymph node | dose not given | – | IFN-γ+ CD8+ T cell frequency | 8.94% and 9.18% and 9.66% and 9.35%
OC(Cn1cncn1)(Cn1cncn1)c1ccc(F)cc1F | Saccharomyces cerevisiae | cell growth | Pdr5 deleted, Cdr1 overexpressed | 2^6.644 µg/mL | – | OD600 | 0.072 and 0.114 and 0.143
COc1ccc(-c2cc(C(F)(F)F)c3c(N)c(C(=O)Nc4cccc(C)c4F)sc3n2)cc1 | Mycobacterium tuberculosis | growth inhibition | H37Rv LepB under-expressing | – | – | IC50 | > 100 µM
COc1cc(CCC[P+](c2ccccc2)(c2ccccc2)c2ccccc2)c(OC)c2c1OCO2.[I-] | SF-295 | SRB | – | – | – | LC50 | -4.54 log M
COc1cc2c(Oc3ccc4[nH]c(C)cc4c3F)ccnc2cc1OCC1(N)CC1 | – | – | paediatric recurrent refractory sarcoma | 10 mg | – | grade 3 sinus arrhythmia | 0%
CCOC(=O)CCCn1c(S)nc2ccccc21 | Schistosoma mansoni | microscopic viability scoring | newly transformed schistosomula | 10 µM, 72 h, prescreen | – | viability reduction | 20%
Oc1ccc2c3c1O[C@H]1[C@@H](O)CC[C@@]4(O)[C@@H](C2)N(CC2CCC2)CC[C@]314 | G-protein coupled receptor 78 (GPR78, Homo sapiens, UniProt Q96P69) | β-arrestin recruitment, TANGO luminescence, refers to: GPR78 | – | concentration not given | reference: basal luminescence | log2 fold change | 0.225
C/C=C(/C)C(=O)O[C@H]1C(C)=C2[C@H]([C@@H]1OC(=O)CCCCCCC)[C@@](C)(OC(C)=O)C[C@H](OC(=O)CCC)[C@@]1(O)[C@H]2OC(=O)[C@@]1(C)O | HEK293T | RNA-seq, refers to: CEBPB mRNA | – | 10 µM, 6 h | reference: vehicle | log2 fold change | 2.41
CO[C@H]1C[C@@H]2CC[C@@H](C)[C@@](O)(O2)C(=O)C(=O)N2CCCC[C@H]2C(=O)O[C@H]([C@H](C)C[C@@H]2CC[C@@H](OC(=O)NCCOCCOCCOCCOCCOCCOCCOCCOCCC(=O)N3CCc4cc(Cn5nc(-c6ccc7oc(N)nc7c6)c6c(N)ncnc65)ccc4C3)[C@H](OC)C2)C[C@@H](O)[C@H](C)/C=C(\C)[C@@H](O)[C@@H](OC)C(=O)[C@H](C)C[C@H](C)/C=C/C=C/C=C/1C | – | – | patients with advanced solid tumours | intravenous, 12 mg weekly, any grade | – | decreased appetite incidence | 8.3%
O=C1Cc2cccc3[nH]c4c(c23)C2CC(CCN12)C4 (stereo not drawn) | Schistosoma mansoni | microscopic viability scoring | newly transformed schistosomula | 10 µM, 72 h, prescreen | – | viability reduction | 4.2%
C[C@H]1CN(c2n[nH]c3nc(N[C@H]4CC[C@H](NS(=O)(=O)CCC(F)(F)F)CC4)ncc23)CCO1 | KHSRP (Homo sapiens, UniProt Q92945) | inhibitor, Kinobeads competition profiling | – | 0.16 µM | reference: vehicle | relative abundance | 1.15
CC1(C)SC2C(NC(=O)C(NC(=O)C3=C(O)C(Cc4ccco4)NC3=O)c3ccccc3)C(=O)N2C1C(=O)O (stereo not drawn) | Escherichia coli | broth microdilution | ATCC 25922 wild type | no clavulanic acid | – | MIC | 6.25 µg/mL
O=c1c2cc(Cl)c(CO)cc2[nH]c(=S)n1Cc1cccnc1 | Mycobacterium tuberculosis | – | H37Rv | – | – | MIC90 | 3.6 µM
